Results collected from several papers.
A part holds a random share of what one study measured.

Series 1 — technique: RNA Bind-n-Seq; form: RNA; matrix: in vitro; concentration: not given; relative to: input RNA pool; direction: higher = stronger binding
Target: RING finger protein unkempt homolog, zinc fingers 1-6, GST-SBP tag (UNK, Homo sapiens, UniProt Q9C0B0, residues 30-357)
Chain of UniProt Q9C0B0 (30-357, looked up): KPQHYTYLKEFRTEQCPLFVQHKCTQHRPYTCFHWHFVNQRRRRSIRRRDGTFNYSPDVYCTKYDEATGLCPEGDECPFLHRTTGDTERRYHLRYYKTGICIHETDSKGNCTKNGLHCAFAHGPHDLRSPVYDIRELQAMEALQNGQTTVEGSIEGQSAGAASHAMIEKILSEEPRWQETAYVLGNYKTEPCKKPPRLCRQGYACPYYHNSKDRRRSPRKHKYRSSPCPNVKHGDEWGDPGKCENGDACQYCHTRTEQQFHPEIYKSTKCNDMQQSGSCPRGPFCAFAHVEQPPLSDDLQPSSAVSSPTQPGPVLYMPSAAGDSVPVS
Setting: RNA with constant flanks, human-mouse chimeric sites, ends assumed
Shared flanks, not repeated: GGGAGUUCUACAGUCCGACGAUC … CAACAGAGGAUUGAGCAUCA
The bound/input enrichment of `GAUCAUGAACCACCAUCAGAAAUGAAGAUGAGAUUACCCAGACGAGCCAAAACAGCUGCGCUACAGAAAAGUAAACUUUAACCUUGCCCAAUUUCUCAUGAAGAUACAAGUUAAGAGAGC` is reported as 0.382 ratio.
The bound/input enrichment of `GCCACCAAUUCCAGCCAACAUGACCCUUGCUGCCUACAAAGAGAAGAUGAAGGAACUCCCGCUGGUGUCCUUGUUCUGCUCCUGCUUCCUGGCCGAUCCCCUGAAUAAGUCGUCCUACAA` is reported as 0.375 ratio.
With `ACACAAUAUGAGACCAACAGCAUGGACUUCAAAGUUGGGGCAGAUGGGACAGUCUUCGCCACCCGGGAGUUGAAGAUCCCCUCAGAGCAGGUGGCGUUCACGGUGACUGCAUGGGACAGC` the bound/input enrichment was 0.265 ratio.
`AACAGAUUUCUCAAGCACAUUCCAAGCGAGAAUGCUGGGGUGAUCAUUGUUGCCCAUGUGCCUUCUGACUGAGCUUUAAUGCUGUUCCAUGUUACAUUGAUGUUCUUCUCCAGAAUUGUU` has a bound/input enrichment of 0.117 ratio.
With `AGAGAUAAGACAUCCAGGAACAUGCGAGGCUCCCGGAUGAAUGGGUUGCCUAGCCCCACUCAUAGUGCCCACUGUAGCUUCUACCGAACCAGAACCUUGCAGGCACUGAGUAAUGAGAAG` the bound/input enrichment was 0.12 ratio.
The bound/input enrichment of `CAGCCUCAGAGCCCUGACUUCCUGGAUAUUACCAACCCUAAAGCGGUAUUAGAAAAUGCAUUGAGAAACUUCGCCUGUCUGACGACUGGAGAUGUGAUUGCCAUCAACUACAAUGAGAAG` is reported as 0.516 ratio.
For `UCCUGGUCGUGUCCCAGUGCAGGACGAUGUGAACAAAAACUCAAAGCGGACCCUCUAUUGUAGUUCUUGAUUCUCGAAAUGUGCUAUUAUUGUUUGUCUUUUUUUUUAAAAGAAAAGAGA`, the bound/input enrichment was 0.301 ratio.
`UAAGUUAUUUUGUACAGUAAGUUAUUUUCUUAACAUUUUUAUAUUGCCAUGUUUAUUUUGUUUGGGUAAUUUGGUUCAUUAAGUACAUAGCUAAGGUAAUGAACAUCGUAAUUAUAGAUU` gave a bound/input enrichment of 3.33 ratio.
`UCCCAAAUCCAGCAGCUAGAAGGAGCCUUGAGACAAACACUCCACACACAGGGAAGGCGAUAACAUUGUAAAUUGGUUUACAUUUUUUCCCCCUGUGGAUUUUUCUAUCCUAGUGCUUGC` gave a bound/input enrichment of 0.312 ratio.
For `CUAAUCCCCUUUACUGCUCCCCCACUUCUCAUGGUAAUAACAAAGUCUUAUAUCCCCGUCCUAGCUUUUACUCAGAUGGCUUAUGGAGCCGGUUUCCUAGCUUUCUUGGGAGGGAUCAGA`, the bound/input enrichment was 0.745 ratio.
`GAGUCGAGCAAACUUGAAACAAUUCGUUUUACAAAAACCUCAGUGUUCACUUGCUUGGCGAUAGCAUUGGGGUUUUAUAGGUUCUGGAAGGAGAACUUUAAUGCUCACUGCCGCUGCUGC` has a bound/input enrichment of 0.227 ratio.

Series 2 — technique: protein binding microarray; form: double-stranded DNA, one strand shown; matrix: in vitro; concentration: not given; relative to: not given; direction: higher = stronger binding
Target: Histone acetyltransferase KAT6A, both winged helices, GST fusion (KAT6A, Homo sapiens, UniProt Q92794, residues 1-181)
Setting: 8-mer, flanks averaged, mean of 2 arrays, mostly near background
Residues (chain): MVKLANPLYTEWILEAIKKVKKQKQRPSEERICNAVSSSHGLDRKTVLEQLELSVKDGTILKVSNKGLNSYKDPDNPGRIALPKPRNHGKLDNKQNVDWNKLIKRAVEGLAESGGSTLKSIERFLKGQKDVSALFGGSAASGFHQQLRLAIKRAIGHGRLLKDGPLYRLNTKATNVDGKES
`AGTGACGG` gave an E-score of 0.126.
With `CCTCCGAG` the E-score was -0.068.
`CTCTCTTC` has an E-score of -0.102.
For `AGGGAGTG`, the E-score was -0.283.
`ACCATGTA` gave an E-score of -0.0301.
`ACGAGCTG` gave an E-score of -0.217.
With `CCACGAGA` the E-score was -0.167.
`AGACAAGC` gave an E-score of -0.0921.
With `AGAGCACT` the E-score was -0.207.
With `AATTGTCA` the E-score was -0.111.
`CACCGAAA` has an E-score of -0.0622.
With `CACGATCG` the E-score was 0.0788.
With `GAAACGAC` the E-score was -0.0362.
The E-score of `ACCGCCGT` is reported as 0.331.
The E-score of `ACCAACTG` is reported as -0.129.
`CGGGTAGA` has an E-score of 0.141.
With `CCCGTACA` the E-score was 0.143.
The E-score of `AGTCCAAA` is reported as -0.143.
`AACGAGCT` has an E-score of -0.225.
`ACATCAAC` gave an E-score of 0.0327.

Series 3 — technique: protein-binding microarray; form: double-stranded DNA, one strand shown; matrix: in vitro; concentration: 2200 nM top; setting: 60-bp whole probe; added: salmon DNA 0.4 mg/ml; relative to: random background probes; direction: higher = stronger binding; shared flanks, not repeated: GCCTAGCAC … GTCTTGATTCGCTTGACGCTGCTG
Target: Interferon regulatory factor 7, full length, phosphomimetic (IRF7, Homo sapiens, UniProt Q92985, residues 1-503, S471D/S472D/S475D/S476D/S477D/S483D/S484D/S487D)
Target sequence (chain): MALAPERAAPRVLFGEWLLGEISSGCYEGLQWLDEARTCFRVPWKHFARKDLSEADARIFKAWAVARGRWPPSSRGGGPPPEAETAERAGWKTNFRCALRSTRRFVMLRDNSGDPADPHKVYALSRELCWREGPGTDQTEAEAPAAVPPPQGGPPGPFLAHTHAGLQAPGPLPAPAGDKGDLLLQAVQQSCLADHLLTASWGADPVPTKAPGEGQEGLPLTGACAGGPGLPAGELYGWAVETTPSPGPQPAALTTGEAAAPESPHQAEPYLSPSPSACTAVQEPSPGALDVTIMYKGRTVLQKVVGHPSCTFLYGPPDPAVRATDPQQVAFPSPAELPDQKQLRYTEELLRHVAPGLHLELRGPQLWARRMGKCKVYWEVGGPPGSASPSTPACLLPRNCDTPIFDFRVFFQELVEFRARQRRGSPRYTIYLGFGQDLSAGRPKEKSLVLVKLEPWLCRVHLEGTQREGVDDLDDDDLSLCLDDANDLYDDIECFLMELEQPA
Under “fitted relative affinity”, `TTAGGACTGTGGTATCGGTTAGTGCTA` is recorded as 0.107 z-score.
`CTCTGTCTAAAATTGTTAAAGTGCTAG`: “fitted relative affinity” 0.136 z-score.
Under “fitted relative affinity”, `TGTGTTTTCACTTTTCCTACGTGCTAG` is recorded as 6.56 z-score.
For `TTAGGTATCGGCACTGGGTTAGTGCTA`, “fitted relative affinity” read -0.305 z-score.
`GTGTTTTGCCCTATTTAAGAGTGCTAG` — result for “fitted relative affinity”: 2.22 z-score.
Under “fitted relative affinity”, `GACGATGTCAGTTTCGAGACGTGCTAG` is recorded as 3.2 z-score.
For `GATGGTTCCCTTTTCCTGACGTGCTAG`, “fitted relative affinity” read 2.75 z-score.
For `TTAGATGTCGGGTATCGATTAGTGCTA`, “fitted relative affinity” read 0.0605 z-score.
Under “fitted relative affinity”, `GACGATCTCCGTATCGAGACGTGCTAG` is recorded as 0.479 z-score.
For `GACGGTTTCCTTCTCCTGACGTGCTAG`, “fitted relative affinity” read 3.04 z-score.
Under “fitted relative affinity”, `TTAGGTATCGGTCTCGGTTTGTGCTAG` is recorded as 2.05 z-score.
Under “fitted relative affinity”, `GCCGATCTCAGTATCGAGACGTGCTAG` is recorded as 0.339 z-score.
`GACGATATCAGACGGGAGACGTGCTAG`: “fitted relative affinity” 0.0216 z-score.
Under “fitted relative affinity”, `GACCGTATCGGACTGGGGACGTGCTAG` is recorded as -0.312 z-score.
`AACGGTCTCGGTCTCGGGACGTGCTAG`: “fitted relative affinity” 0.206 z-score.
`TCAGTTTCTCCTTTCCAACTGTGCTAG`: “fitted relative affinity” 5.33 z-score.
`TTGGTGCTCATTTTTTTTGCGTGCTAG` — result for “fitted relative affinity”: 0.333 z-score.
Under “fitted relative affinity”, `GACGATCTCAATATCGAGACGTGCTAG` is recorded as 0.313 z-score.
`ATATCTTATCCTATCAGTTTGTGCTAG`: “fitted relative affinity” 1.59 z-score.
Under “fitted relative affinity”, `TACGAACTGAGACTGGAGACGTGCTAG` is recorded as -0.268 z-score.
Under “fitted relative affinity”, `TTTTTTCTACTTCTGTTTTTGTGCTAG` is recorded as 4.8 z-score.
`GACGATCTCAGACTGGAAACGTGCTAG`: “fitted relative affinity” -0.0601 z-score.
For `GACCGTATCGACTATCGGGACGTGCTA`, “fitted relative affinity” read 0.294 z-score.
For `GGAAGTATGACTCTGCCTCTGTGCTAG`, “fitted relative affinity” read 0.16 z-score.
For `TCACATTTAGAAAATGGAACTGTGCTA`, “fitted relative affinity” read 0.36 z-score.

Series 4 — technique: RNA Bind-n-Seq; form: RNA; matrix: in vitro; concentration: 365 nM; relative to: no-protein control; direction: higher = stronger binding
Target: RNA binding protein fox-1 homolog 2, RRM domain, GST-SBP tag (RBFOX2, Homo sapiens, UniProt O43251-10, residues 100-194)
Setting: natural RNA segment, single round, ends assumed
Shared flanks, not repeated: GGGAGUUCUACAGUCCGACGAUC … UGGAAUUCUCGGGUGCCAA
Construct (chain): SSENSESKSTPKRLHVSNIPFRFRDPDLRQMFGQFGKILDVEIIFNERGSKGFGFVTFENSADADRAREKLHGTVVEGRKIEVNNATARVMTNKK
`CUUCAGUUUUCUUUUCUACAAUAAAGUGUUCGUUAAAUUUGGUUAAAAACAAAACAACAAACUUGAUUCCUGGGCUGUGGCAAGUUUUCUUUGUCCUCAAAACUGGCAGA`: “RBNS enrichment (R)” 0.505.
For `GAGCCAUUGGGCUUGGUUUGGUAUUGACAGGGUCAUCCUGAGGGGUUAGCAGUGGUAGAGAGCAAGGCAAGUGAUCUCUCCAGCUACCUGCCAGCAGUAGAGAGAGAGAG`, “RBNS enrichment (R)” read 1.82.
Under “RBNS enrichment (R)”, `GCAGCUAUCUCGAGAGCCACUGCUAGAACACCUUUUCCUGGAGGCUGCCCCACCAAAUGCUCAACCUUAGGUGGAAUCUCCCUGGAACACAUACCAGGUCAGGGAGGGCC` is recorded as 0.456.
Under “RBNS enrichment (R)”, `CCUUUGGUUGUAUGAUUUUCUUCUUUUUUAAUGACUCCUGGAAGCAGUGCCCCUUCAGAGCUGGCUGGGAGCUUGGCUCAGCCACCUCUUAGGGUGCCUGCCUCUGCCAU` is recorded as 0.725.
`GGGGCAGCCUGCUGUCCCUCCCACCUGCACAGUGAUGCUGUCUGGUGGGGCCUCGUGGUGCCUAGGAGAUGAAGAUGAGGUUUUCCUUACCGUGUAAAUGAAUAUUUGUA`: “RBNS enrichment (R)” 0.238.
`UGAUCCACCUGCCUCGGCCUCCCAAAGUGGGAAAUGGGUCAUUUUCAAAGGGGCAACAGUGAUACCAUCCCUGCACUCCUGGGUCCUGCUCUUCCAAUGCCCAAGGCAUG`: “RBNS enrichment (R)” 0.249.
`AAUAAUUUUUAAAUCAUACCAAAAAUAGUAAGAAAAUAUGCAAACACUCUGUGAUCAAACUUAAAAGUCAUUGCCAUUCAUCAUUAAUAAAAGUUGCCAUUUCAACUACG`: “RBNS enrichment (R)” 0.503.
`UUGAUCACUAAGCAAAGCUGCUAGUGGGAUUCUAUAUUUCGUGUCAUCUUUUUUAUUAUAAUUUAUUGCAAAUUUUUUUCUGAAUAAAUAUAUGUUGUGUGAAAAAGCAA` — result for “RBNS enrichment (R)”: 0.524.
Under “RBNS enrichment (R)”, `UCUUUUACCAGCCCAAAUACGUCAAAACUUUUUAUAUGAAUGUGGAAAUAAAGAAGAGACUAUUUCUAUAACCAUGGUGCUCAGUCGUUUCUAAUGGAAGCUCAGGCUUU` is recorded as 1.41.
`AGACCAGGAAUCUAGAUAAUAGUUUAGCUUCUGCCUGAUACUGAUCCGGGAGCACAUGAUAUUUAUAUUUAAAAUUCCAGUAGUUAUAUUUAAUGAUCUCACCCCUGAGU`: “RBNS enrichment (R)” 0.82.
Under “RBNS enrichment (R)”, `AACCGUCCUAAUUUUUCAUAGACUCUGGCAUCUUACUAACCCAUGUGAGGUUUUCAUUGUUCAUCUUUAUGGUGUUUUGGAUUGGUGUACUGAGAGGGACUUGGUUCAAA` is recorded as 0.448.
`GUGGAAUCACAAGUUGCUGUGAUACUUCAUUUUUAAAUUGUGAACUUUGUACAAAUUUUGUCAUGCUGGAUGUUAACACAUCUUACUCUAAAUAAACAAGGUGUUGCCAC`: “RBNS enrichment (R)” 0.603.

Excerpt of the above (series 3):
For `TTAGGTATCGGCACTGGGTTAGTGCTA`, “fitted relative affinity” read -0.305 z-score.
Under “fitted relative affinity”, `GACGATGTCAGTTTCGAGACGTGCTAG` is recorded as 3.2 z-score.
Under “fitted relative affinity”, `GACCGTATCGGACTGGGGACGTGCTAG` is recorded as -0.312 z-score.
Under “fitted relative affinity”, `GCCGATCTCAGTATCGAGACGTGCTAG` is recorded as 0.339 z-score.
Under “fitted relative affinity”, `TGTGTTTTCACTTTTCCTACGTGCTAG` is recorded as 6.56 z-score.
For `TTAGATGTCGGGTATCGATTAGTGCTA`, “fitted relative affinity” read 0.0605 z-score.
